Experimental data pooled from the literature.

| SMILES | assay | system | conditions | how to read | endpoint | value |
| --- | --- | --- | --- | --- | --- | --- |
| CC(C)C[C@H](NC(=O)[C@H](CCCN)NC(=O)CNC(=O)[C@@H](NC(=O)[C@H](C)NC(=O)[C@@H]1CSCSC[C@H](NC(=O)CC[C@H](N)C(=O)O)C(=O)N[C@@H](CC(N)=O)C(=O)N[C@@H]([C@@H](C)O)C(=O)N[C@@H](C)C(=O)N[C@@H]([C@@H](C)O)C(=O)N1)[C@@H](C)O)C(=O)N[C@@H](C)C(=O)N[C@@H](CCC(=O)O)C(=O)N[C@@](C)(Cc1ccccc1)C(=O)N[C@@H](CC(C)C)C(=O)N[C@H](C(=O)N[C@@H](CCCNC(=N)N)C(=O)N[C@@H](CO)C(=O)N[C@@H](CO)C(=O)N[C@@H](CC(N)=O)C(=O)N(C)[C@@H](CC(N)=O)C(=O)N[C@@H](Cc1ccccc1)C(=O)NCC(=O)N1CCC[C@H]1C(=O)N[C@@H](CCCCNC(=O)CC[C@H](NC(=O)CC[C@H](NC(=O)CCCCCCCCCCCCCCCCCCC(=O)O)C(=O)O)C(=O)O)C(=O)N[C@@H](CC(C)C)C(=O)N1CCC[C@H]1C(=O)N1CCC[C@H]1C(=O)N[C@H](C(=O)N[C@@H](CCC(=O)O)C(=O)N[C@H](C(=O)NCC(=O)N[C@@H](CO)C(=O)N[C@@H](CC(N)=O)C(=O)N[C@H](C(=O)N[C@@H](Cc1ccc(O)cc1)C(N)=O)[C@@H](C)O)C(C)C)[C@@H](C)O)C(C)C | – | healthy human, plasma | subcutaneous, 12 mg single dose, geometric LS mean | – | Cmax | 1030 ng/mL |
| CC1(C)CC[C@]2(NC(=O)C(C)(F)F)CC[C@]3(C)[C@H](C(=O)C=C4[C@@]5(C)C=C(C#N)C(=O)C(C)(C)[C@@H]5CC[C@]43C)[C@@H]2C1 | geometric least squares mean | human, plasma | oral, 150 mg, given alone | – | Cmax | 43 ng/mL |
| CN1CCC[C@]1(C)/C=C/S(=O)(=O)NC(=O)Nc1c2c(cc3c1CC(O)C3)CCC2 (some centres unmarked) | – | human, plasma | oral, 50 mg twice daily of parent drug, day 14, metabolite of dosed drug | – | Cmax at second steady-state dose | 4700 ng/mL |
| O=C(CCc1ccc(CNC(C(=O)O)C2CCCCC2)cn1)NO (centres unmarked) | – | healthy male humans, plasma | oral, 40 mg, single dose | reference: fed over fasted | Cmax ratio | 0.57 |
| CCCCCCCOc1ccc(CC[C@](N)(CO)COP(=O)(O)O)cc1C(F)(F)F | – | healthy human males, plasma | 0.25 mg, day 21 | – | Cmax | 3.76 ng/mL |
| O=C(CCc1ccc(CNC(C(=O)OC2CCCC2)C2CCCCC2)cn1)NO (centres unmarked) | – | healthy male humans, plasma | oral, 20 mg, single dose | reference: fed over fasted | Cmax ratio | 0.66 |
| CN1CCC[C@]1(C)/C=C/S(=O)(=O)NC(=O)Nc1c2c(cc3c1CCC3O)CCC2 (some centres unmarked) | – | human, plasma | oral, 100 mg twice daily of parent drug, day 14, metabolite of dosed drug | – | Cmax at second steady-state dose | 81400 ng/mL |
| CCOc1cc(CC(=O)N[C@@H](CC(C)C)c2ccccc2N2CCCCC2)ccc1C(=O)O | – | human | oral, dose not given, added: omaveloxolone | reference: substrate alone | Cmax decrease | 23% |

Excerpt of the above:
| SMILES | assay | system | conditions | how to read | endpoint | value |
| --- | --- | --- | --- | --- | --- | --- |
| CC(C)C[C@H](NC(=O)[C@H](CCCN)NC(=O)CNC(=O)[C@@H](NC(=O)[C@H](C)NC(=O)[C@@H]1CSCSC[C@H](NC(=O)CC[C@H](N)C(=O)O)C(=O)N[C@@H](CC(N)=O)C(=O)N[C@@H]([C@@H](C)O)C(=O)N[C@@H](C)C(=O)N[C@@H]([C@@H](C)O)C(=O)N1)[C@@H](C)O)C(=O)N[C@@H](C)C(=O)N[C@@H](CCC(=O)O)C(=O)N[C@@](C)(Cc1ccccc1)C(=O)N[C@@H](CC(C)C)C(=O)N[C@H](C(=O)N[C@@H](CCCNC(=N)N)C(=O)N[C@@H](CO)C(=O)N[C@@H](CO)C(=O)N[C@@H](CC(N)=O)C(=O)N(C)[C@@H](CC(N)=O)C(=O)N[C@@H](Cc1ccccc1)C(=O)NCC(=O)N1CCC[C@H]1C(=O)N[C@@H](CCCCNC(=O)CC[C@H](NC(=O)CC[C@H](NC(=O)CCCCCCCCCCCCCCCCCCC(=O)O)C(=O)O)C(=O)O)C(=O)N[C@@H](CC(C)C)C(=O)N1CCC[C@H]1C(=O)N1CCC[C@H]1C(=O)N[C@H](C(=O)N[C@@H](CCC(=O)O)C(=O)N[C@H](C(=O)NCC(=O)N[C@@H](CO)C(=O)N[C@@H](CC(N)=O)C(=O)N[C@H](C(=O)N[C@@H](Cc1ccc(O)cc1)C(N)=O)[C@@H](C)O)C(C)C)[C@@H](C)O)C(C)C | – | healthy human, plasma | subcutaneous, 12 mg single dose, geometric LS mean | – | Cmax | 1030 ng/mL |
